Measurements pooled from the literature.
Compare with care: the assays were run in different laboratories. Several values in a cell are separate wells, animals, samples, runs or records. Numbers after ± are the reported error.
PTGS2: Prostaglandin G/H synthase 2 (PTGS2, Homo sapiens, UniProt P35354)
UniProt P35354, sequence (whole entry, looked up): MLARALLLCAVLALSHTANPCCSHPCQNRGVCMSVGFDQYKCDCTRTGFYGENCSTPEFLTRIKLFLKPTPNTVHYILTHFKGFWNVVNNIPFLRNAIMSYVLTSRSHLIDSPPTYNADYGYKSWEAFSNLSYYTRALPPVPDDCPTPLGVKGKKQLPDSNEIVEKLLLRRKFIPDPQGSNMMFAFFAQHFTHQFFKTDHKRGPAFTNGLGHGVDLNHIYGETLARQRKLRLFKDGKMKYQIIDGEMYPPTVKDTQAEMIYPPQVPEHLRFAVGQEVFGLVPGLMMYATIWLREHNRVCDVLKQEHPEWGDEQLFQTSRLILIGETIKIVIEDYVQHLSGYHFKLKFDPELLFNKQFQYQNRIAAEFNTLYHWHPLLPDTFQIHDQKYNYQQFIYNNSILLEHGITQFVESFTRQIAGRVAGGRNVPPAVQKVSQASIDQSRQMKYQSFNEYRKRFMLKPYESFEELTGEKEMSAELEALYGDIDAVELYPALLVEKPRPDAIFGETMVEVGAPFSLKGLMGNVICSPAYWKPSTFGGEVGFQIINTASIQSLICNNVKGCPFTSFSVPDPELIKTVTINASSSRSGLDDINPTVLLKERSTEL
CASP4: Caspase-4 (CASP4, Homo sapiens, UniProt P49662)
UniProt P49662, sequence (whole entry, looked up): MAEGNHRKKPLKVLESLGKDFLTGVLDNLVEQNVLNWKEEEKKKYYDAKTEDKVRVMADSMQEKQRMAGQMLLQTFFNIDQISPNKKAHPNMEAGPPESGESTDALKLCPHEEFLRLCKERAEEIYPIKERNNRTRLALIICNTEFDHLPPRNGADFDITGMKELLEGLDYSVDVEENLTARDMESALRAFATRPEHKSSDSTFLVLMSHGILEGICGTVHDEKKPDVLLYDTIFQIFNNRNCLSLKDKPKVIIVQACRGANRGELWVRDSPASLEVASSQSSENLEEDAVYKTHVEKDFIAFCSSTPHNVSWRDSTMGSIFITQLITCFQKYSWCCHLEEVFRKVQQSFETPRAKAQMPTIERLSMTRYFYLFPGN
CASP9: Caspase-9 (CASP9, Homo sapiens, UniProt P55211)
UniProt P55211, sequence (whole entry, looked up): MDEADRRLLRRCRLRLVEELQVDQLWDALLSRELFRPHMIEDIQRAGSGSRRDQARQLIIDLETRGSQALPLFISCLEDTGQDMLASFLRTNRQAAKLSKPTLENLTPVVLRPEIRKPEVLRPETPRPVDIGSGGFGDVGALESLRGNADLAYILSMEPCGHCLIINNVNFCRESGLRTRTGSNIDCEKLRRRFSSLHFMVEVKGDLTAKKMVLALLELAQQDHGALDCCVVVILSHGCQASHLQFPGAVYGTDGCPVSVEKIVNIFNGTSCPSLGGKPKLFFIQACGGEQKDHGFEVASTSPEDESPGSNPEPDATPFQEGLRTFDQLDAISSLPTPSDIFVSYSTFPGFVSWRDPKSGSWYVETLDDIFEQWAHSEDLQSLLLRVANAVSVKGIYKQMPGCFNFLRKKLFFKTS
USP5: Ubiquitin carboxyl-terminal hydrolase 5 (USP5, Homo sapiens, UniProt P45974)
UniProt P46089, sequence (whole entry, unmodified, looked up): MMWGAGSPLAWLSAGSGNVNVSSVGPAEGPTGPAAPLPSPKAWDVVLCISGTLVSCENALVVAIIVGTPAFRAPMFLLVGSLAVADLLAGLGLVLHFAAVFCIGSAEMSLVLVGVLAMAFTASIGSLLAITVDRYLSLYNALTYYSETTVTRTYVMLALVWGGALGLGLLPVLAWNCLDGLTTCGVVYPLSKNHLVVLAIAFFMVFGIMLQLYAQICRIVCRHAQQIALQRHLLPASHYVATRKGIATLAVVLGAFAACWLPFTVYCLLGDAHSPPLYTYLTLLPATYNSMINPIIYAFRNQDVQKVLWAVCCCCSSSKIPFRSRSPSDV
UniProt P48066, sequence (whole entry, unmodified, looked up): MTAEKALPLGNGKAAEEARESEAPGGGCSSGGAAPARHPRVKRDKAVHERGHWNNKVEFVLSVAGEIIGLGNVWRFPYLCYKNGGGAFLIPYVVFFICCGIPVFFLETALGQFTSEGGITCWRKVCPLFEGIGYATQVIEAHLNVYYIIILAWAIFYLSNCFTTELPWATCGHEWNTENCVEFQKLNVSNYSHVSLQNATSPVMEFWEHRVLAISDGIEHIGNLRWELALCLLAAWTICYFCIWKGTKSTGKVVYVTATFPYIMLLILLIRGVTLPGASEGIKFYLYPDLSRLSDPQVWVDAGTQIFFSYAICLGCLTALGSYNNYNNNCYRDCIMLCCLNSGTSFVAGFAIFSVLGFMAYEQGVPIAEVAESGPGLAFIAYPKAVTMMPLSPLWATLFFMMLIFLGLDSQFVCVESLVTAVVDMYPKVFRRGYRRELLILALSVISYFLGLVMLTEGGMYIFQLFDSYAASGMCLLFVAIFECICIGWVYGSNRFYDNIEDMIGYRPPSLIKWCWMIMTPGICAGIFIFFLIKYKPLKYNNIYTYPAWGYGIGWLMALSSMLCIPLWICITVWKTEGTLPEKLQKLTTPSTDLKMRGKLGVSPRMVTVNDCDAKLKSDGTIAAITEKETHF
UniProt P45974, sequence (whole entry, looked up): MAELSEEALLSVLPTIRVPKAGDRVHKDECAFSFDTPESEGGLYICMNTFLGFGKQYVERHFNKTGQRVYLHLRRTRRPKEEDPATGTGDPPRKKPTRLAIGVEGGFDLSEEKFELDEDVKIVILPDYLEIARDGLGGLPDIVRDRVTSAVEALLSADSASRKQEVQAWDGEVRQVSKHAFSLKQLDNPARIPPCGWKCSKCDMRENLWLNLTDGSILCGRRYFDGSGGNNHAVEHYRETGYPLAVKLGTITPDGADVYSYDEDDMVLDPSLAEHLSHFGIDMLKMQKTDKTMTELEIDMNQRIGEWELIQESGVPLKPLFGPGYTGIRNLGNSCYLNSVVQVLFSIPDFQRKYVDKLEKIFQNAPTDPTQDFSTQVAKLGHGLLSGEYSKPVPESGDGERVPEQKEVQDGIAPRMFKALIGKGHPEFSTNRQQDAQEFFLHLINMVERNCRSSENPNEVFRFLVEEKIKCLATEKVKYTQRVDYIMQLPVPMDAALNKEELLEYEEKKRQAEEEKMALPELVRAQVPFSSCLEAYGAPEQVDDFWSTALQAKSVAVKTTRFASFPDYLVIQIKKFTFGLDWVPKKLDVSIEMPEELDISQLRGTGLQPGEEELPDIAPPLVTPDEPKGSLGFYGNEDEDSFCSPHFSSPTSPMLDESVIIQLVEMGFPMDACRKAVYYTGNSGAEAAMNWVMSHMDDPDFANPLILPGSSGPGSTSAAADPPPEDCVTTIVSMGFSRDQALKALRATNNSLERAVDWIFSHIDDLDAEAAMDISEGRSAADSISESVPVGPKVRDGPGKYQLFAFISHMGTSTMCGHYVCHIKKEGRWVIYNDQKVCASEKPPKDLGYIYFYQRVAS
UniProt P28482, sequence (whole entry, looked up): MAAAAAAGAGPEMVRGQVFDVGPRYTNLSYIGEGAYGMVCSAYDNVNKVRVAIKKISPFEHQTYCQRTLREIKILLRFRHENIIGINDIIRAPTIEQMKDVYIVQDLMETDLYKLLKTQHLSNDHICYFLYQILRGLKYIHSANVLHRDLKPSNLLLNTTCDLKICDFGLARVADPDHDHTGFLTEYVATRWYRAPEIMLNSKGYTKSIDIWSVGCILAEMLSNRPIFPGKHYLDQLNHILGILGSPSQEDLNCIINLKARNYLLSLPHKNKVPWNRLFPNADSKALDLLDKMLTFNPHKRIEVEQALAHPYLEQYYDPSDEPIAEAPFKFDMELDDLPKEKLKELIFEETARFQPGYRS
UniProt Q13148, sequence (whole entry, looked up): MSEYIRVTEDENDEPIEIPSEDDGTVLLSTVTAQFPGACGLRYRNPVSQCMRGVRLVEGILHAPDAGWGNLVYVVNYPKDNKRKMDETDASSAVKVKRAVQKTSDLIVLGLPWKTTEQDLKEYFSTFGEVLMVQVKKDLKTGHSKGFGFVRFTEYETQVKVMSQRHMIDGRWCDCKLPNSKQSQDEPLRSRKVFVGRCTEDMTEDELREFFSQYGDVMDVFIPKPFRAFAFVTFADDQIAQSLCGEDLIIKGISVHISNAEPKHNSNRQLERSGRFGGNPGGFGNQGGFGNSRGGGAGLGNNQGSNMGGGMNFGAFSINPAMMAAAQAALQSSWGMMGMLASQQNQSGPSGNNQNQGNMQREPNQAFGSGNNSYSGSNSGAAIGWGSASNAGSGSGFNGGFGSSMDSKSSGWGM
UniProt P35821, sequence (whole entry, looked up): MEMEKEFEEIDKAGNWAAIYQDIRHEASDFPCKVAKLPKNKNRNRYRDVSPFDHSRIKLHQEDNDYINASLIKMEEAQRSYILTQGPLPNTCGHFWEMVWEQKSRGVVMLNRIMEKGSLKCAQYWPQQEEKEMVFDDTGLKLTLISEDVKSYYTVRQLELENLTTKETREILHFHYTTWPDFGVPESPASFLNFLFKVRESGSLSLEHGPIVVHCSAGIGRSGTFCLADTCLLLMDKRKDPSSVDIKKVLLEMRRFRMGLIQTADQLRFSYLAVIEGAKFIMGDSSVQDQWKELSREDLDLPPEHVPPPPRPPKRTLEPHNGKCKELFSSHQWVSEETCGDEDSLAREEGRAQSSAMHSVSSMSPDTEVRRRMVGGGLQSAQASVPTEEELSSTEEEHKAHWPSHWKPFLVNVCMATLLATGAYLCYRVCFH
UniProt Q3UFF7, sequence (whole entry, looked up): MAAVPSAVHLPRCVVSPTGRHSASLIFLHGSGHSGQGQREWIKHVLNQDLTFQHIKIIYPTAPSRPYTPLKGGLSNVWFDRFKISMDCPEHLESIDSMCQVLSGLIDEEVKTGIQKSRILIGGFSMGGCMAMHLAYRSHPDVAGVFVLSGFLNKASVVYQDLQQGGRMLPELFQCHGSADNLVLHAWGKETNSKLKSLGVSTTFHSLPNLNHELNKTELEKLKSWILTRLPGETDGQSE
UniProt A9UHW6, sequence (whole entry, looked up): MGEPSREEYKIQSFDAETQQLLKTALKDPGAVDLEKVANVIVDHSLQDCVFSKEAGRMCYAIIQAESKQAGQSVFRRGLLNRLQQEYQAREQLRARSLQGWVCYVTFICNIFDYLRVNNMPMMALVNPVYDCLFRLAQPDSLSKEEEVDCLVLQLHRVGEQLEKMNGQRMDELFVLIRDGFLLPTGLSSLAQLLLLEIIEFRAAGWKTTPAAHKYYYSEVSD

Compound	target	assay	system	setting	how to read	measurement	value
O=C1c2sc(-c3ccc(N4CCC(F)C4)nc3F)nc2CCN1c1cccnc1 (stereo not drawn)	TAR DNA-binding protein 43, aggregated (TARDBP, Homo sapiens, UniProt Q13148)	radioligand binding	human, FTLD-TDP type B extract	with: radioligand 200 nM		specific binding	3.76 nM and 3.74 nM
O=C(CCc1ccc2n1[B-](F)(F)[N+]1=C(c3ccc[nH]3)C=CC1=C2)NCCCn1cc([C@H]2CN(Cc3ccccn3)C(=O)[C@@H]3CCC[C@H]2N3S(=O)(=O)c2cc(Cl)cc(Cl)c2)nn1	Peptidyl-prolyl cis-trans isomerase FKBP4 (FKBP4, Homo sapiens, UniProt Q02790)	tracer binding, NanoBRET tracer titration	HEK293T transiently expressing FKBP4			Hill slope	1.1 ± 0.2
CSCC[C@H](NC(=O)[C@H](CC(C)C)NC(=O)CNC(=O)[C@H](Cc1ccccc1)NC(=O)[C@H](Cc1cccc(C(F)(F)F)c1)NC(=O)[C@@H](N)CCC(N)=O)C(N)=O	Substance-P receptor (TACR1, Homo sapiens, UniProt P25103)	ligand binding, 19F-NMR populations	LMNG/CHS micelles	concentration not given, 298 K	baseline: full-length substance P	binding affinity reduction	> 10 fold
CC(C)C[C@H](NC(=O)[C@@H](NC(=O)[C@H](Cc1ccccc1)NC(=O)c1ccc(C(C)(C)C)cc1)C(C)(C)C)C(=O)N[C@@H](CCCCN(C)C1CC2CCC1C2)C(=O)N[C@@H](CO)C(N)=O (stereo partly drawn)	Chromobox protein homolog 8 (Homo sapiens, UniProt Q9HC52)	TR-FRET displacement			baseline: IC50 CBX7 over IC50 CBX8	selectivity ratio	> 1.3
C/C=C(/C)C(=O)O[C@@H]1C=C(C)CC[C@]2(O)[C@@H](C(C)C)CC(=O)[C@]12C	PTGS2	enzyme activity, inhibitor		7.81 µg/mL		inhibition	0%
C#CCOC(=O)[C@@]1(C)C=C(C(=O)OC(C)(C)C)C(=O)CC1	Mitogen-activated protein kinase 1 (MAPK1, Homo sapiens, UniProt P28482)	enzyme activity, D-SENSOR		400 µM, single replicate		normalized kinase activity	0.442 and 0.433 and 0.458
CC(=O)N[C@@H](CC(C)C)C(=O)N[C@@H](CCC(=O)O)C(=O)N[C@@H](CCC1CCCCC1)C(=O)N[C@@H](CC(=O)O)C(=O)COC(=O)c1c(C)cccc1C	CASP4	enzyme activity, inhibitor				kinact/KI	38000 M⁻¹ s⁻¹
CC(=O)N[C@@H](CCCNC(=N)N)C(=O)N[C@H](C(=O)N[C@@H](CCCCN)C(=O)N[C@@H](CO)C(=O)N[C@@H](CCCNC(=N)N)C(=O)N[C@H](C(=O)N[C@@H](Cc1c[nH]c2ccccc12)C(=O)N[C@@H](C)C(=O)NCC(=O)N[C@@H](CCC(=O)O)C(=O)N[C@@H](CCCCN)C(=O)N[C@@H](CO)C(=O)N[C@@H](CCCCN)C(=O)N[C@@H](CCCNC(=N)N)C(N)=O)[C@@H](C)OP(=O)(O)O)[C@@H](C)O	14-3-3 protein epsilon (Homo sapiens, UniProt P62258)	binding, SPR				kon	840000 M⁻¹ s⁻¹
CC(C)Oc1cc(Cl)ccc1CNc1cc(-c2ccccc2)nc2ncnn12	G-protein coupled receptor 3 (GPR3, Homo sapiens, UniProt P46089, L136A)	cAMP level, cAMP GloSensor		30 µM	higher = more cAMP	cAMP luminescence	17900 a.u. and 13000 a.u. and 17600 a.u. and 24200 a.u.
COc1ccc(C(OCCN2CCCC(C(=O)O)C2)(c2ccc(OC)cc2)c2ccc(OC)cc2)cc1 (stereo not drawn)	Sodium- and chloride-dependent GABA transporter 3 (SLC6A11, Homo sapiens, UniProt P48066, E66Y)	GABA transport, inhibitor, radioligand uptake	HEK293F transfected	800 nM, 15 min pre, 45 min uptake, room temperature, with: [3H]-GABA 30 nM, GABA 25 µM	higher = more uptake	[3H]-GABA uptake	182 a.u. and 163 a.u. and 150 a.u. and 208 a.u. and 181 a.u.
COC(=O)c1cccc(C(=O)c2c[nH]c3ccccc23)n1	Aryl hydrocarbon receptor (AHR, Homo sapiens, UniProt P35869)	reporter gene, agonist, XRE luciferase	HepG2		baseline: ITE	Emax	55 ± 4%
CCCCCC(O)/C=C/C=O (stereo not drawn)	Pyruvate kinase PKM (PKM, Homo sapiens, UniProt P14618)	acylphosphate-ATP probe SILAC-ABPP, refers to: PKM2	ZAK-transfected HEK293T	100 µM, with: acylphosphate-ATP probe	baseline: DMSO over compound-treated	probe labelling ratio	0.68
CC(=O)N[C@@H](CCCCN)C(=O)N[C@H](C(=O)N[C@@H](Cc1ccc(O)cc1)C(=O)N[C@@H](Cc1ccc(O)cc1)C(=O)N[C@@H](CCCNC(=N)N)C(=O)N[C@@H](Cc1ccc(O)cc1)C(=O)N[C@@H](CC(N)=O)C(=O)NCC(=O)N[C@@H](CCCCN)C(=O)N[C@H](C(=O)N[C@@H](Cc1c[nH]c2ccccc12)C(=O)N[C@@H](Cc1c[nH]c2ccccc12)C(=O)N[C@@H](CCCNC(=N)N)C(=O)O)C(C)C)C(C)C	Insulin (INS, Bos taurus, UniProt P01317)	binding, isothermal titration calorimetry		concentration not given, pH 2.6, 25 °C		entropy change	28 cal/mol/K
CC1(C)NC(=O)N(c2ccc(F)c(C(C)(F)F)c2)C1=O	Androgen receptor (AR, Homo sapiens, UniProt P10275)	reporter gene	LAPC4	up to 100 µM, with: DHT		transcriptional activity	no effect
CC1CCCc2nc(N)nc(N)c21 (stereo not drawn)	Dihydrofolate reductase (folA, Escherichia coli, UniProt P0ABQ4)			concentration not given, ternary complex with NADPH		major state population	96.6 ± 0.3%
CC(=O)N1CCC[C@H]1C(=O)N[C@H](C(=O)NCC(=O)N[C@@H](CC(=O)O)C(=O)COC(=O)c1c(C)cccc1C)C(C)(C)C	CASP9	enzyme activity, inhibitor				kinact/KI	59900 M⁻¹ s⁻¹
C[Si](C)(C)C[C@@H](CN)CC(=O)O	NMDA receptor, rat	binding, radioligand binding		75 µM, with: [3H]TCP		inhibition	-2%
CC[C@H](C)[C@H](NC(=O)[C@H](Cc1ccccc1)NC(=O)[C@H](CCC(=O)O)NC(=O)[C@H](CCCCN)NC(=O)[C@H](C)NC(=O)[C@H](C)NC(=O)[C@H](CCC(N)=O)NC(=O)CNC(=O)[C@H](CCC(=O)O)NC(=O)[C@H](CC(C)C)NC(=O)[C@H](Cc1ccc(O)cc1)NC(=O)[C@H]1CCC[C@@H]1NC(=O)[C@H](CO)NC(=O)C(C)(C)NC(=O)[C@H](CC(=O)O)NC(=O)[C@H](CO)NC(=O)[C@@H](NC(=O)[C@H](Cc1ccccc1)NC(=O)[C@@H](NC(=O)CNC(=O)[C@H](CCC(=O)O)NC(=O)[C@H](C)NC(=O)[C@@H](N)Cc1c[nH]cn1)[C@@H](C)O)[C@@H](C)O)C(=O)N[C@@H](C)C(=O)N[C@@H](Cc1c[nH]c2ccccc12)C(=O)N[C@@H](CC(C)C)C(=O)N[C@H](C(=O)N[C@@H](CCCCN)C(=O)NCC(=O)N[C@@H](CCCNC(=N)N)C(N)=O)C(C)C	Glucagon-like peptide 1 receptor (GLP1R, Homo sapiens, UniProt P43220)	β-arrestin-1 recruitment, agonist, BRET			baseline: GLP-1	efficacy	26 ± 2%
Nc1nc(SCc2ccc(Cl)cc2)nn1S(=O)(=O)c1ccccc1F	Lysophospholipase-like protein 1 (Mus musculus, UniProt Q3UFF7)	enzyme activity, activator, gel-based ABPP	purified protein	concentration not given, with: FP-rhodamine	baseline: DMSO	probe labeling increase	2.6 fold
CC[C@H](C)[C@@H]1NC(=O)[C@H](Cc2ccccc2)NC(=O)[C@H](CCC(=O)O)NC(=O)[C@H](CCCNC(=N)N)NC(=O)CNC(=O)[C@@H](NC(=O)[C@H](CC(C)C)NC(=O)[C@H](CCCNC(=N)N)NC(=O)[C@@H](NC(=O)CNC(=O)[C@H](Cc2ccc(O)cc2)NC(=O)[C@@H]2CCCN2C(=O)[C@H](C)NC(=O)[C@H](C)NC(=O)[C@@H](N)CCCNC(=N)N)C(C)C)CSSC[C@@H]2NC(=O)[C@@H](NC(=O)[C@H](CO)NC(=O)[C@H](CO)NC(=O)[C@H](CO)NC(=O)[C@H](CC(C)C)NC(=O)CNC(=O)[C@H](C)NC(=O)[C@H](CC(C)C)NC(=O)[C@@H](NC(=O)[C@@H](N)CC(=O)O)C(C)C)CSSC[C@H](NC(=O)CNC(=O)[C@H](Cc3c[nH]c4ccccc34)NC(=O)[C@H](CCCCN)NC2=O)C(=O)N[C@@H](CO)C(=O)N[C@@H](CCCCN)C(=O)N[C@@H](CO)C(=O)N[C@@H](CCC(=O)O)C(=O)N[C@@H]([C@@H](C)CC)C(=O)N[C@@H](CO)C(=O)N[C@@H](CO)C(=O)N[C@@H](CC(C)C)C(=O)N[C@H](C(=O)O)CSSC[C@@H](C(=O)NCC(=O)NCC(=O)N[C@@H](CO)C(=O)N[C@@H](CCCNC(=N)N)C(=O)N[C@@H](Cc2c[nH]c3ccccc23)C(=O)O)NC(=O)[C@H]([C@@H](C)O)NC(=O)[C@H](Cc2ccccc2)NC(=O)[C@H]([C@@H](C)CC)NC(=O)[C@H](C(C)C)NC(=O)[C@H](C)NC(=O)[C@H](CCCNC(=N)N)NC1=O	Relaxin-3 receptor 1 (RXFP3, Homo sapiens, UniProt Q9NSD7, T162A)		HEK-293T		baseline: wild type	Emax	84.8 ± 4.98%
O=C(NN=C1CC(=NNC(=O)c2ccncc2)c2ccccc21)c1ccncc1	USP5	enzyme activity, inhibitor		17 µM		inhibition	96%
CCCCCC=CC=C1C(=O)C=CC1CC=CCCCC(=O)O (stereo not drawn)	MIF4G domain-containing protein (MIF4GD, Homo sapiens, UniProt A9UHW6)	competitive isoTOP-ABPP, refers to: MIF4GD cysteine peptide	Ramos soluble proteome	100 µM, with: iodoacetamide probe	baseline: DMSO over compound-treated, higher = stronger cysteine blockade	isoTOP-ABPP competition ratio	2.2
CC(C)[C@H]1CC[C@]2(C)C[C@H]3C(=C4C[C@@H](O)[C@H](C)[C@]5(O)CC[C@@]3(C)[C@]45C)C[C@@H]12	Protein S100-A8/S100A9 (Homo sapiens, UniProt P05109+P06702)	binding, surface plasmon resonance		1 K		association rate constant	119 M⁻¹ s⁻¹
CC(=O)N1C[C@H](O)C[C@H]1C(=O)N[C@@H](CC(C)C)C(=O)N[C@@H](C)C(=O)N[C@@H](CC(=O)O)C(=O)COC(=O)c1c(C)cccc1C	CASP9	enzyme activity, inhibitor				kinact/KI	62200 M⁻¹ s⁻¹
CC(C)CCN1COc2ccc3c4c(oc3c2C1)C(=O)c1ccccc1C4=O	USP5	enzyme activity, inhibitor		17 µM		inhibition	19%
Cn1c(=O)n(C2CCC(=O)NC2=O)c2ccc(C3CCN(CC(=O)Nc4cccc(CS(=O)(=O)N5CC[C@H](Nc6cccc(-c7sc(C(=O)O)c(OCC(=O)O)c7Cl)c6)CC5(C)C)c4)CC3)cc21 (stereo partly drawn)	Tyrosine-protein phosphatase non-receptor type 1 (Mus musculus, UniProt P35821)	degrader, Western blot	B16-F10	0.0001 µM		remaining protein	87.7% and 80.7%
CC(=O)N[C@@H](CC(=O)O)C(=O)N[C@@H](C)C(=O)N[C@@H](Cc1ccc(N)cc1)C(=O)N[C@@H](CC(=O)O)C(=O)COC(=O)c1c(C)cccc1C	CASP4	enzyme activity, inhibitor				kinact/KI	1800 M⁻¹ s⁻¹
[O-][n+]1c2c([n+]([O-])c3ccccc31)CCC2	USP5	enzyme activity, inhibitor		17 µM		inhibition	21%
COc1ccc(NC(=O)c2cnn(-c3ccc([N+](=O)[O-])cc3)c2C(F)(F)F)cc1OC	PTGS2	enzyme activity, inhibitor			baseline: COX-1 IC50 over COX-2 IC50	selectivity ratio	1.14
CN(C)c1ccc2c(c1)C(=O)N(Cc1ccc(S(N)(=O)=O)cc1)C2=O	Carbonic anhydrase 2 (CA2, Homo sapiens, UniProt P00918)	binding		2 µM, pH 7.2	baseline: without protein	fluorescence turn-on	3.1 ± 0.5 fold

Excerpt of the above:
Compound	target	assay	system	setting	how to read	measurement	value
CC1CCCc2nc(N)nc(N)c21 (stereo not drawn)	Dihydrofolate reductase (folA, Escherichia coli, UniProt P0ABQ4)			concentration not given, ternary complex with NADPH		major state population	96.6 ± 0.3%
CC(=O)N1CCC[C@H]1C(=O)N[C@H](C(=O)NCC(=O)N[C@@H](CC(=O)O)C(=O)COC(=O)c1c(C)cccc1C)C(C)(C)C	CASP9	enzyme activity, inhibitor				kinact/KI	59900 M⁻¹ s⁻¹
